# Results gathered from unrelated publications.
# Every numbered part comes from another study and shows a few of its results, in no order.

# Block 1 — method: RNA Bind-n-Seq; molecule type: RNA; matrix: in vitro; concentration: 20 nM; setting: 6-mer, flanks averaged, single round; with: 150 mM LiCl; baseline: input library; reading: higher = stronger binding
# Target: TAR DNA-binding protein 43, full length, His tag (TARDBP, Homo sapiens, UniProt Q13148, residues 1-414)
Sequence,6-mer enrichment (R)
UAUACG,0.877
AAUACG,0.848
CCAGAG,0.921
AGCAGA,0.898
AAAUAU,0.965
AAUCUA,0.844
AACCCU,0.952
GCCCAC,1
CAUUGA,0.86
GAACUC,1.08
GGCUGG,1.17
CAGGGA,0.965

# Block 2 — method: aptamer microarray, sandwich; molecule type: DNA with 2'F-ANA; matrix: in vitro; concentration: 200 nM; with: Cy3 exosite-II aptamer, 400 nM; reading: higher = stronger binding; sequence: GGTTGGTGTGGTTGG
# Target: Prothrombin, mature alpha-thrombin (F2, Homo sapiens, UniProt P00734)
# Setting: whole 15-mer aptamer, many near background
Modification,mean fluorescence intensity [a.u.]
2'F-ANA at 3 5 6 10 12 13 15,57.8
2'F-ANA at 3 4 6 8 9 12 13,633
2'F-ANA at 1 2 4 5 7 9 10 11 12 15,50.5
2'F-ANA at 1 2 3 4 5 7 9 10 12 14 15,46.5
2'F-ANA at 3 4 5 6 7 8 10 11 12 13 14,44.7
2'F-ANA at 1 2 4 5 6 14 15,64.2
2'F-ANA at 2 3 4 8 10 11 15,230
2'F-ANA at 2 7 8 9 10 11 12 13 15,144
2'F-ANA at 3 4 5 6 7 8 10 11 12 14 15,48.3
2'F-ANA at 3 5 6 8 9 10 11 14,56.1
2'F-ANA at 5 7 10 13 14,49.5
2'F-ANA at 3 8 12 13 14,700
2'F-ANA at 1 2 3 4 6 7 12 14 15,72.3
2'F-ANA at 1 3 6 7 10 11 13 14 15,59.6
2'F-ANA at 3 4 9 12 13,689

# Block 3 — method: RNA Bind-n-Seq; molecule type: RNA; matrix: in vitro; concentration: 365 nM; baseline: no-protein control; reading: higher = stronger binding
# Target: RNA binding protein fox-1 homolog 2, RRM domain, GST-SBP tag (RBFOX2, Homo sapiens, UniProt O43251-10, residues 100-194)
# Setting: natural RNA segment, single round, ends assumed
# Shared flanks, not repeated: GGGAGUUCUACAGUCCGACGAUC … UGGAAUUCUCGGGUGCCAA
# Construct (chain): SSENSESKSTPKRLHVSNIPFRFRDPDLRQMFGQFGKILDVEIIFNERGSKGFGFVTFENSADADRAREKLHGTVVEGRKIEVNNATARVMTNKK
Sequence,RBNS enrichment (R)
AGCACGUAGAACUCCCUGCAUAAGCCAAGCCACCAGGCUCCUAUGCCUCUCUUAGUCUUCCCCCUAGAGCUAGGCGCCUACCAGGUGUAUAUAUGUAGCAUACUUUGGGG,0.252
UCCACCAGGCCUGUAACAUCUUGUUGAGAUCAUUUCUAUGGCCCAAUACUUGUCGCUCUGGGGUUUUGUCUUGUUGAGGAGAGGACAGCAGUUUCUGGACCAUGUUAUCA,3.31
UUUCUAGAAUGUCAUAUAAAUGGAGUCACACUGAUGUCGCCUUUUGAGUCUGGCAUCUUUCCCUCAGCUUAAUGCUUUUGAGUCAUUCAUGAUGUGUGCGUGUGGUUUGU,0.423
GGCUGGGGCCCCAUCUUGAUCUUUGAGCCCAUUCUUCUGGGUGUGCUUUUUGGGACCAUCACUGAGAGUCAGGAGUUUUACUGCCUGUAGCAAUGGCCAGAGCCUCUGGC,0.256
AGCAGCUCAGGACCCUUUCCCUUAGGGGCUGCUUCCUCCCCUCAAAACCAGAACCUGGCAAGGGACUCACUAGCCUGGAUGGCCCAUGGGAGACCAGGACAGAUGAGAAG,0.376
UCCAAGGAGCGAGGAGGGCAAGCGGCCUCCCAGCUCCCUGGUACCUCGAGGCACCAUUCCAGCCAGGGACGCUGCCGGGUAGACUCUCCACUCCCCCUGCCGCCCACACU,0.352
GAUCUGGGCCUUUGAACAACUGGGGGGCGUUUUCUCCCCCCCAUUGGGACACCAGUCUUCGGUGUGUGGAAUGUGGUAUUUUCCCGCGUGGAGGUGUGCUUUCUCACAAC,0.268

# Other studies, line by line — organism: Saccharomyces cerevisiae; effect on: peptide binding; method: yeast competitive growth sequencing; molecule type: peptide; strain: cyclin F-Cln2 fusion; concentration: concentration not given; setting: library 2, Cln2-subtracted; reading: direction not given
Molecule,binding score
LLKRLQDVVSERA,0.877
PSSMRKICTYFHR,1.89
